# Results of several laboratories.
# Parts stem from different laboratories: compare values within a part only. Substitutions count along the parent as printed.

# Series 1 — target: CCNF, cyclin fold, Cln2 fusion (human); technique: yeast growth competition, sequencing; sample: yeast; notes: strong parent motif; reference: not given; reading: higher = stronger binding
# Parent: CDKN1B docking peptide (human); PSACRNLFGPVDH
Change,normalised enrichment score
PSACRNNFGPVDH [L7N],-0.0319
PEACRNLFGPVDH [S2E],5.1
PWACRNLFGPVDH [S2W],6.19
PSACRNLFRPVDH [G9R],2.35
PSACRNHFGPVDH [L7H],0.916
PSACRNLFGPFDH [V11F],7.09
PSACRNLFGPVDW [H13W],7.98
PSACRNLFGPVPH [D12P],8.12

# Series 2 — technique: RNA Bind-n-Seq; molecule type: RNA; sample: in vitro; tested at: 365 nM; reference: no-protein control; reading: higher = stronger binding
# Target: RNA binding protein fox-1 homolog 2, RRM domain, GST-SBP tag (RBFOX2, Homo sapiens, UniProt O43251-10, residues 100-194)
# Notes: natural RNA segment, single round, ends assumed
# Shared flanks, not repeated: GGGAGUUCUACAGUCCGACGAUC … UGGAAUUCUCGGGUGCCAA
Strand,RBNS enrichment (R)
UCGGUUCUUAACACAGGAGACCCGACAAUGAGUGCACAAGUCAUGGACAUUCACGCUCAGUAGCUUAAGGGAAUAUGCGUUGUCUACAAUGGUGACUGAUCUCGAAUCAG,0.464
UCACCAGUGAGUUAGCAGCACGUGUUCCCGACAUAACAUUGUACUGUAAUGGAGUGAGCGUAGCAGCUCAGCUCUUUGGAUCAGUCUUUGUGAUUUCAUAGCGAGUUUUC,0.446
UGAUGAUUUUGUAAUUCUUAUGACUAAAUUUUCUUUUAAGCAUUUGUAUAUUAAAAUAGCAUACUGUGUAUGUUUUAUAUCAAAUGCCUUCAUGAAUCUUUCAUACAUAU,0.57
GGCUCAUGCUACUAGUGCUCUGGGCCCAGUGACCAUGCACCUUCACCCCAGGCAGGCCCUGUGUACCCCUCCUCUAUACUCCAGCAUUUAAUCUUGUGGCUGCUUUCUUU,0.762
GUAAAGAUUUAAGUUAUUUUAAUUUAUUGUGGAUCAGAAACCUAGAUGAAACUGGUCAGAAUCUGUAAAUUACUUAGUUUAUAUCCACUUUGAGCAGGUAUCAAAUGAUU,0.576
AGUGAUUUGGGUUUUAUUUUGUAUUUGCAGGGUUUGUCAUUAAUAAUUAAUGCCCCUCUCUUACAGAACACUCCUAUUUGUACCUCAACAAAUGCAAAUUUUCCCCGUUU,0.375
UCCGCAUGUGUAGUCUCCCCUCGCCUCCCCCACCUCCCAUCCCCCUUUUUUCCAAUCAAGCUGUUUCCCCUGUUCUUACCCUAUAUAAGUUGCAAACAAUAUCGCUGAAC,4.37
GGUGACCUCCGCAUCCCUCAGAGCUCAGAGGGUCCUCGCUGCCACCGGUCCCCCCCUAGCCCGUCAUCAGCCGGUGGCAGCUCCAUCUUCCAUUCCUGGUUUUAGGGCAG,1.07

# Other studies, line by line
Molecule,tested on,test,system,setting,scale,endpoint,value
"PhoQ, residues 284 288 289 292 302 303 GTAMQF","PhoP, residues 12 14 15 18 19 GHCSL (Escherichia coli, UniProt P23836)","Sort-seq, refers to: YFP reporter",E. coli,"PhoQ-PhoP variant library, together with: 10 µM Mg2+","reference: high Mg2+ state, higher = stronger signaling",fold induction,20.5
"HNRNPM (Homo sapiens, UniProt P52272)","MYEF2 (Homo sapiens, UniProt Q9P2K5)",cross-linking MS,cell fractions,together with: DSSO,,cross-linked residues,K388 to K521

# Some of these lines once more (series 2):
Strand,RBNS enrichment (R)
UGAUGAUUUUGUAAUUCUUAUGACUAAAUUUUCUUUUAAGCAUUUGUAUAUUAAAAUAGCAUACUGUGUAUGUUUUAUAUCAAAUGCCUUCAUGAAUCUUUCAUACAUAU,0.57
GGCUCAUGCUACUAGUGCUCUGGGCCCAGUGACCAUGCACCUUCACCCCAGGCAGGCCCUGUGUACCCCUCCUCUAUACUCCAGCAUUUAAUCUUGUGGCUGCUUUCUUU,0.762
